Results from different studies.
Protocols differ between the studies behind these lines. Numbers after ± are the reported error.
HDAC1: Histone deacetylase 1 (HDAC1, Homo sapiens, UniProt Q13547)
Chain of UniProt Q13547 (whole entry, looked up): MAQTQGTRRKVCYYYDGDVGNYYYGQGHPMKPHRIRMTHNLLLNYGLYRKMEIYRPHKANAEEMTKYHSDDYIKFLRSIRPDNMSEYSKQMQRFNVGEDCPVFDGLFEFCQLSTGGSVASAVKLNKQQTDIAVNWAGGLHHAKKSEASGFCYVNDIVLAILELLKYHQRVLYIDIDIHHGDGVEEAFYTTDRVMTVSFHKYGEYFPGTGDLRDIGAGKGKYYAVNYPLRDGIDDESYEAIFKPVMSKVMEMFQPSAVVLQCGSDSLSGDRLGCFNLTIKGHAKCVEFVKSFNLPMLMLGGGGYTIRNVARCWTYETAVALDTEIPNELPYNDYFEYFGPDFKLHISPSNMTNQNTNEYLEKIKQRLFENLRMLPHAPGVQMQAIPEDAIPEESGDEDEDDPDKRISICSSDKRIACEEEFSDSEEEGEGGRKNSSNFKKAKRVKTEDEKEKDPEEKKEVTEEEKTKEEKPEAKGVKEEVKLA
SIRT6: NAD-dependent protein deacylase sirtuin-6 (SIRT6, Homo sapiens, UniProt Q8N6T7)
Chain of UniProt Q8N6T7 (whole entry, looked up): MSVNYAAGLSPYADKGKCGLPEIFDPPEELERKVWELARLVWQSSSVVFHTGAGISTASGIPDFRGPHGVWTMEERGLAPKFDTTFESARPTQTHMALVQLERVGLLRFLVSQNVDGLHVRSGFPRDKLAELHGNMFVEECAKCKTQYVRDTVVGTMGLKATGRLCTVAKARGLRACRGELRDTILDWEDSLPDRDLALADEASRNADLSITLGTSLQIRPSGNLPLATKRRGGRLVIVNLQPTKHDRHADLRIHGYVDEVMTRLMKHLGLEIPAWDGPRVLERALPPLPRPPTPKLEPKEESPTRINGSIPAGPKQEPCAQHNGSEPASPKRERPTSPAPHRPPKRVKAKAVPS
Faah: Fatty-acid amide hydrolase 1 (Faah, Mus musculus, UniProt O08914)
Chain of UniProt O08914 (whole entry, looked up): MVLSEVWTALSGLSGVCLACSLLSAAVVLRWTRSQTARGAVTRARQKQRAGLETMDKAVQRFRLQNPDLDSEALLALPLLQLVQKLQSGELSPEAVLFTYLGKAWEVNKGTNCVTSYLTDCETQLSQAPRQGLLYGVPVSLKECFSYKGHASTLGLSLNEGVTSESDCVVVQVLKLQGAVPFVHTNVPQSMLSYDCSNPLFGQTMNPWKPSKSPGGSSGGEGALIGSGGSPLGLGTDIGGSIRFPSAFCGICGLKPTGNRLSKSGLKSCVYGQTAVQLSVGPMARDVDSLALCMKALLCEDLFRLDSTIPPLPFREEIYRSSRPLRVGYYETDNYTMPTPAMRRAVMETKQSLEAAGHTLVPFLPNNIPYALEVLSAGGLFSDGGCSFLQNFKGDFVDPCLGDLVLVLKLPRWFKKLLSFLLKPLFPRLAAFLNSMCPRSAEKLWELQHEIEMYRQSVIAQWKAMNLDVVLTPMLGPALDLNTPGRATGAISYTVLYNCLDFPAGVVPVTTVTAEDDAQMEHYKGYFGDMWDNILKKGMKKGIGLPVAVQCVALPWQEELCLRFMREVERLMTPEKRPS
PPARG: Peroxisome proliferator-activated receptor gamma (PPARG, Homo sapiens, UniProt P37231)
CTSL: Procathepsin L (CTSL, Homo sapiens, UniProt P07711)
Chain of UniProt P07711 (whole entry, looked up): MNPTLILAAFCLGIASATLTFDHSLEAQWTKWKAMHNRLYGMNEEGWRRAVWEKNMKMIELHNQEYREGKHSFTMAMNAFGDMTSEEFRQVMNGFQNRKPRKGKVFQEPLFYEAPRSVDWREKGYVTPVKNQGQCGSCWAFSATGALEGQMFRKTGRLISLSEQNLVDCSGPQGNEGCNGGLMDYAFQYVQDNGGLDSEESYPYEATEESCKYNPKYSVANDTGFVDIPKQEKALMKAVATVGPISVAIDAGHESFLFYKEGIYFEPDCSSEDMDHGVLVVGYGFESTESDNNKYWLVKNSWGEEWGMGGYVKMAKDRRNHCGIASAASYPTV
PKN3: Serine/threonine-protein kinase N3 (PKN3, Homo sapiens, UniProt Q6P5Z2)
Chain of UniProt P51531 (whole entry, looked up): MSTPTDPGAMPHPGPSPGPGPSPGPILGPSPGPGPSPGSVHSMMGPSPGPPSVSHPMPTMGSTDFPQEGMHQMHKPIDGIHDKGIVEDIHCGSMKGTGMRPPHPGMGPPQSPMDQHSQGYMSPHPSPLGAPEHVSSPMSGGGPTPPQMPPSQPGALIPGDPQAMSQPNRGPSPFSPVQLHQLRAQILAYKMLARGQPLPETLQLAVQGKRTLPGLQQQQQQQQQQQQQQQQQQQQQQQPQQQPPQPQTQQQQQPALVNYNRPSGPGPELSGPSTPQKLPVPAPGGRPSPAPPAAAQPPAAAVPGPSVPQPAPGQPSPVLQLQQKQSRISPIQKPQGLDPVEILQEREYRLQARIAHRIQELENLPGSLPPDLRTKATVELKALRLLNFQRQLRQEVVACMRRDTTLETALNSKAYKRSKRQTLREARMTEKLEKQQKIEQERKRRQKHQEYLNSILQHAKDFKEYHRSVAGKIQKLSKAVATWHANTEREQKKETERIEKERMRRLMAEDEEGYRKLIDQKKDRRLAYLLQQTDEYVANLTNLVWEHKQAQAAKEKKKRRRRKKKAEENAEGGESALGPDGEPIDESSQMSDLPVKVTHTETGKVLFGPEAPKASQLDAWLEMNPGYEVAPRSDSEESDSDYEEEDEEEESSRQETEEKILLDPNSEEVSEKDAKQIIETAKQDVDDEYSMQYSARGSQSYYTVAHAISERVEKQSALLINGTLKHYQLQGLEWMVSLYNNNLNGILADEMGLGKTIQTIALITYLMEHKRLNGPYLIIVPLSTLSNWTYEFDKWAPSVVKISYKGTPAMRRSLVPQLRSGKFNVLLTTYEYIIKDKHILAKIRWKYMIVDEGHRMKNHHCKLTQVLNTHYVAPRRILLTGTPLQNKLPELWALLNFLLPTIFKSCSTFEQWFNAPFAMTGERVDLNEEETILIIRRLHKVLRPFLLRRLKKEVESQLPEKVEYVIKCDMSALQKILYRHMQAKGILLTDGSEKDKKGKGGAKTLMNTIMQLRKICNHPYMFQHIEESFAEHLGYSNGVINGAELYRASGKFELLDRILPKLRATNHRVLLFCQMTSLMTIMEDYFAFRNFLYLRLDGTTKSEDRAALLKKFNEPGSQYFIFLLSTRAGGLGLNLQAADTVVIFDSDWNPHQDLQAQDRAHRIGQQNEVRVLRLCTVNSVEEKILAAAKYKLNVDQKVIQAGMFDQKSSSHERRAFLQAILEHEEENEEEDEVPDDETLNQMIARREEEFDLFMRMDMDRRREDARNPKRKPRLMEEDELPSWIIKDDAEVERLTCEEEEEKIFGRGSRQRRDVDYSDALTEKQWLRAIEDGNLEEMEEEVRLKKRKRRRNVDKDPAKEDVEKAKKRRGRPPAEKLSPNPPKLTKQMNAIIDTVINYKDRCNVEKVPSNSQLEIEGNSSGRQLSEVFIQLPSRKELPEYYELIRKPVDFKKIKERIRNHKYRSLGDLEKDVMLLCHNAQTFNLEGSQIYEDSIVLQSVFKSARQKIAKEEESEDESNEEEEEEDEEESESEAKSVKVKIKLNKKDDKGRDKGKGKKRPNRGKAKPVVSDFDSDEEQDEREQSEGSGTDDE
Chain of UniProt Q6P5Z2 (whole entry, looked up): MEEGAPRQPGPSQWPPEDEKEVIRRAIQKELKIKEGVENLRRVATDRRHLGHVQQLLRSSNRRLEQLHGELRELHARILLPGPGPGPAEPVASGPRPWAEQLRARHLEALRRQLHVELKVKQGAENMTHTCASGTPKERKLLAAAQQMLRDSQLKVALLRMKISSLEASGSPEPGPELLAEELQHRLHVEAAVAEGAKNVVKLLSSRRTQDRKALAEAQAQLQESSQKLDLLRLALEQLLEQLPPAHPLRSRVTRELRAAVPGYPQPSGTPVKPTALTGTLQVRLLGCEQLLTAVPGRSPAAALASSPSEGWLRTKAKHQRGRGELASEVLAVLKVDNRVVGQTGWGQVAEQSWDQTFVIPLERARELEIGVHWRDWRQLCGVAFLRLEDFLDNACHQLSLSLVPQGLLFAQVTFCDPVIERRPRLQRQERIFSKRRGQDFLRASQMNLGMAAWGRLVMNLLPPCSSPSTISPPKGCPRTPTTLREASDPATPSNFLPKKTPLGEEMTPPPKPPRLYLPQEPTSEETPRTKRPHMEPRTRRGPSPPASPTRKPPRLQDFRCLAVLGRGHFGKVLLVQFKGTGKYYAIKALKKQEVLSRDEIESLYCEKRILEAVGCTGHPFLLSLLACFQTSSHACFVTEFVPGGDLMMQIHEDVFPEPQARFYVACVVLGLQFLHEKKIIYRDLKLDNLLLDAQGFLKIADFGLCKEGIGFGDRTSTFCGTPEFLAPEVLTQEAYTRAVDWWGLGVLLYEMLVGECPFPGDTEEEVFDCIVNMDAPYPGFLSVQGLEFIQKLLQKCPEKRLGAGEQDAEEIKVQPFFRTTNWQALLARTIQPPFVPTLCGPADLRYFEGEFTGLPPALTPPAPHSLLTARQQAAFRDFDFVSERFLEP
Chain of UniProt Q9NQR1 (whole entry, looked up): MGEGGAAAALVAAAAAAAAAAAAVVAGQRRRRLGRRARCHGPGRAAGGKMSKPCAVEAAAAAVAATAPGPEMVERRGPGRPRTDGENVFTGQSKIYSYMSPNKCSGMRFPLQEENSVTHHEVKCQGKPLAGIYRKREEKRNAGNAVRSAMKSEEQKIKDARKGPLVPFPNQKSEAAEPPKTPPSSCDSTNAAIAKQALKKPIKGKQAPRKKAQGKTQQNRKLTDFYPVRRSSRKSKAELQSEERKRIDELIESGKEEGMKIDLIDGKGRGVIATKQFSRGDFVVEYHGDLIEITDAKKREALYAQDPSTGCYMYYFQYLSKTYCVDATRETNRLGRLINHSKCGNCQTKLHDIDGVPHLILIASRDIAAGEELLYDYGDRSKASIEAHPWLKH
Chain of UniProt O43463 (whole entry, looked up): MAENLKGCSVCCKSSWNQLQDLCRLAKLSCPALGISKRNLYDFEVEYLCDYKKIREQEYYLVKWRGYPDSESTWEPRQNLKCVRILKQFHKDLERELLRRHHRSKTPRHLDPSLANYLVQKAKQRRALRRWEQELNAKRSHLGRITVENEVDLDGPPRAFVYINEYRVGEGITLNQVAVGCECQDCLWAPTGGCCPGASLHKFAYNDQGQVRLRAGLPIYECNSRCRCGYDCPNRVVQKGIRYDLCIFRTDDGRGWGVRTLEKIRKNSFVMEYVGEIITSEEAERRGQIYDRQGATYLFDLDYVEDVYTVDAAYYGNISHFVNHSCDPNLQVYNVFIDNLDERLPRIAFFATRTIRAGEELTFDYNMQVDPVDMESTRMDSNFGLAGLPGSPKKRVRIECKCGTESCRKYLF

| SMILES | target or system | test | test system | conditions | how to read | quantity | result |
| --- | --- | --- | --- | --- | --- | --- | --- |
| CC(C)C[C@H](NC(=O)CNC(=O)[C@H](C)NC(=O)[C@H](C)NC(=O)[C@H](C)NC(=O)CNC(=O)CCCCNC(=O)CCCCNC(=O)CCCCNC(=O)[C@H](CCCCN)NC(=O)[C@H](Cc1ccc(O)cc1)NC(=O)[C@@H](N)Cc1c[nH]c2ccccc12)C(=O)N[C@@H](CC(C)C)C(=O)N[C@@H](CO)C(N)=O | NPBWR1 (Homo sapiens, UniProt P48145) | calcium signal, antagonist |  | 10 µM |  | inhibition | 13% |
| CC(=O)NCCNCc1cc(Cl)c(OCc2cccc(-c3cccc(OCc4ccc(/C=C/C(=O)NO)cc4)c3)c2C)cc1OCc1cccc(C#N)c1 | HDAC1 | enzyme activity, inhibitor |  | 1 µM |  | inhibition | 5.42% |
| Cc1cc(C)nc(SCC(=O)Nc2ncc(Cc3cccc4ccccc34)s2)n1 | SIRT6 | enzyme activity, inhibitor |  | 10 µM, together with: myristoylated substrate |  | inhibition | < 5% |
| COc1ccc(C(=O)Nc2ccc(Nc3cc(C)nc(N4CCCC4)n3)cc2)cc1 | Beta sliding clamp, with Pol III* (Escherichia coli, UniProt P0A988) | clamp-dependent DNA synthesis, gel |  | 300 µM, pH 7.8, 37 °C, together with: 4 nM primed ssDNA, 100 fmol Pol III* |  | inhibition | 13% |
| CCN(CC)C(=O)n1ccnn1 | Faah | serine hydrolase activity, inhibitor, competitive gel-based ABPP | mouse T-cell proteome | 1 µM, 30 min, 37 °C |  | inhibition | > 95% |
| Cc1c(COc2cc(OCc3cccc(C#N)c3)c(CN3CCCC[C@H]3C(=O)O)cc2Cl)cccc1-c1cccc(OCc2ccc(/C=C/C(=O)NO)cc2)c1 | HDAC1 | enzyme activity, inhibitor |  | 1 µM |  | inhibition | 29.9% |
| Cc1cccc(O[C@H]2CCC[C@@H](C(C)CNCc3ccncc3)C2)c1 (relative stereo) | EIF2AK3 (Homo sapiens, UniProt Q9NZJ5) | enzyme activity, inhibitor |  | 1 µM |  | inhibition | 8% |
| Cc1c(Cc2ccc(F)c(OC(C)C(=O)O)c2)c2ccc(C(=O)NC(C)c3ccc(C(C)(C)C)cc3)cc2n1CC(C)C (stereo not shown) | PPARG | ligand displacement, TR-FRET |  |  |  | IC50 | 0.0084 µM |
| Cc1[nH]nc2c1N=C(c1ccccc1Cl)c1cnc(N3CCOCC3)cc1N2 | Slc6a1 (Rattus norvegicus, UniProt P23978) | cell-free assay |  | 10 µM |  | inhibition | 2% |
| Cc1ccc(CN(C)C(=O)C(CCc2ccccc2)NC(=O)C(NC(=O)c2ccc(OCc3ccccc3)cc2)C(C)O)cc1 (stereo not shown) | CTSL | enzyme activity, inhibitor |  | 100 µM |  | inhibition | -9% |
| CC[C@H](C)[C@@H]1NC(=O)[C@H](Cc2ccc(O)cc2)NC(=O)CCSCc2cccc(c2)CSCCNC(=O)[C@H](Cc2c[nH]cn2)NC(=O)[C@H](Cc2ccc(O)cc2)NC(=O)[C@H](CC(=O)O)NC(=O)[C@H](Cc2ccc(F)cc2)NC(=O)[C@H](CC(C)C)NC(=O)[C@H](CCCNC(=N)N)NC1=O | Melanoma-associated antigen 4, MHD; with RAD18 (Homo sapiens, UniProt P43358) | protein-protein interaction, NanoBRET | HEK293 | 20 µM |  | inhibition | > 50% |
| C[Si]1(C[C@H](CN)CC(=O)O)CCCC1 | Interleukin-1 receptor type 1 (Il1r1, Mus musculus, UniProt P13504) | binding, radioligand binding |  | 70 µM, together with: iodinated interleukin-1 beta |  | inhibition | 2% |
| Cc1c(COc2cc(OCc3cccc(C#N)c3)c(CNC(CO)(CO)CO)cc2Cl)cccc1-c1cccc(OCCCCCC(=O)NO)c1 | HDAC1 | enzyme activity, inhibitor |  | 1 µM |  | inhibition | 71.3% |
| CCn1cc(-c2cccc(C(F)(F)F)c2)c2sc(C(=N)NC3CCS(=O)(=O)CC3)cc2c1=O | SWI/SNF-related matrix-associated actin-dependent regulator of chromatin subfamily A member 2, isoform B (SMARCA2, Homo sapiens, UniProt P51531) |  |  | 1 µM |  | inhibition | -5.08% |
| Cc1c(Cc2cccc(OC(C)(C)C(=O)O)c2)c2ccc(C(=O)N[C@@H](C)c3cccc(C(C)(C)C)c3)cc2n1CC1CC1 | Peroxisome proliferator-activated receptor gamma, ligand-binding domain (PPARG, Homo sapiens, UniProt P37231) | reporter gene, luciferase reporter | HEK293T, Gal4-PPARγ LBD |  |  | IC50 | 2.07 µM |
| Cn1ccc2cc(-n3c(=O)[nH]c4sc5c(c4c3=O)CCCC5)ccc21 | PTAFR (Homo sapiens, UniProt P25105) | ligand displacement, radioligand |  | 10 µM |  | inhibition | -13% |
| CC(C)C[C@H](NC(=O)[C@@H](CCCCNC(=O)[C@@H](Cc1ccccc1)NC(=O)CCCCCNC(=O)CN1CCN(CC(=O)O)CCN(CC(=O)O)CCN(CC(=O)O)CC1)NC(=O)[C@H](Cc1ccc(O)cc1)NC(=O)[C@H](CO)NC(=O)[C@H](Cc1c[nH]c2ccccc12)NC(=O)[C@H](Cc1c[nH]cn1)NC(=O)[C@@H]1CCC(=O)N1)C(=O)N[C@@H](CCCNC(=N)N)C(=O)N1CCC[C@H]1C(=O)NCC(N)=O [indium-111 labelled] |  |  | female athymic nude mice, spleen | intravenous, 0.037 MBq, 4 h |  | tissue uptake | 0.07 ± 0.03 %ID/g |
| O=C1c2sc(-c3ccc(N4CCC(F)C4)nc3F)nc2CCN1c1cccnc1 (stereo not shown) | PPARG | ligand displacement, radioligand |  | 1 µM |  | inhibition | -5% |
| O=C(CN1CCO[C@@H](COc2cccc(Cl)c2)C1)N1CCc2ccccc21 | HTR2C (Homo sapiens, UniProt P28335) | radioligand binding |  | concentration not given, together with: [3H]mesulergine |  | inhibition | 48% |
| C=CCNC(=O)[C@H](CCc1ccccc1)NC(=O)[C@H](CC(=O)NCC(C)(C)C)NC(=O)CCc1ccccc1 | CTSL | enzyme activity, inhibitor |  | 100 µM |  | inhibition | 7% |
| C[Si](C)(C)C[C@H](CN)CC(=O)O | GABA transporter, rat | binding, radioligand binding |  | 250 µM, together with: [3H]GABA |  | inhibition | -15% |
| Cc1ccc(-c2nn(-c3ccc(S(C)(=O)=O)cc3)cc2/C=N/N=C2/NC(=O)CS2)cc1 | EGFR (Homo sapiens, UniProt P00533) | kinase activity, inhibitor |  | 0.01 µM |  | inhibition | 26.7% |

| SMILES | target or system | test | test system | conditions | how to read | quantity | result |
| --- | --- | --- | --- | --- | --- | --- | --- |
| O=C(N(c1ccccc1)c1ccccc1)n1ccnn1 | Faah | serine hydrolase activity, inhibitor, competitive gel-based ABPP | mouse T-cell proteome | 1 µM, 30 min, 37 °C |  | inhibition | < 50% |
| C=CC(=O)Nc1cc(-c2nn(C3CCN(CCNC(=O)[C@H](C)CCC45CC6CC(CC(C6)C4)C5)CC3)c3ncnc(N)c23)ccc1Oc1ccccc1 | CDK20 (Homo sapiens, UniProt Q8IZL9) | inhibitor, KiNativ profiling | biochemical | 2 µM |  | inhibition | 25.7% |
| O=C(O)CCNC(=S)NCCCC[C@H](NS(=O)(=O)c1cccc(F)c1)C(=O)N[C@@H](Cc1c[nH]c2ccccc12)C(=O)NC1CCC1 | SIRT6 | demyristoylase activity |  | 10 µM, together with: myristoylated peptide substrate and NAD+ 500 µM |  | inhibition | < 0% |
| N#Cc1ccnc(N2C(=O)CC[C@H]2C(=O)N(c2cncc(F)c2)[C@H](C(=O)NC2CC(F)(F)C2)c2ccccc2Cl)c1 | LDHA (Homo sapiens, UniProt P00338) | enzyme activity |  | 100 µM, forward and reverse reactions |  | inhibition | no inhibition |
| COC1CN([C@H]2CC[C@H]([C@@]3(C)Oc4c(Cl)cc(C(=O)NCc5c(SC)cc(C)[nH]c5=O)c(C)c4O3)CC2)C1 |  | RNA-seq, refers to: C3orf70 | human, whole blood | dose not given, 24 h | relative to: pretreatment baseline | log2 fold change | 2.87 |
| C[C@H](NC(=O)[C@H](CC(=O)NCC(C)(C)C)NC(=O)CCc1ccccc1)C(=O)NCc1ccccc1Cl | CTSL | enzyme activity, inhibitor |  | 100 µM |  | inhibition | 21% |
| COc1cc(OC)c(F)c(/C=C/c2cnc3ccn(S(=O)(=O)c4cn(CCF)cn4)c3n2)c1F | KIT (Homo sapiens, UniProt P10721) |  |  | 1000 nM |  | inhibition | 7.9% |
| CCCC[C@H](NC(=O)CCCCCCCNC(=O)CN1CCN(CC(=O)O)CCN(CC(=O)O)CC1)C(=O)N[C@H]1CC(=O)NCCCC[C@@H](C(N)=O)NC(=O)[C@H](Cc2c[nH]c3ccccc23)NC(=O)[C@H](CCCNC(=N)N)NC(=O)[C@@H](Cc2ccccc2)NC(=O)[C@H](Cc2c[nH]cn2)NC1=O [technetium-99m labelled] |  |  | C57 mouse, stomach | intravenous, 0.037 MBq, 0.5 h |  | tissue uptake | 3.52 ± 2.78 %ID/g |
| CN(C)C/C=C/C(=O)Nc1ccc2nc(NCCCCCN(C)C)nc(NCCCCCCN(C)C)c2c1 | KMT5A (Homo sapiens, UniProt Q9NQR1) | enzyme activity, inhibitor, radiometric |  | 50 µM |  | inhibition | 3% |
| CCn1cc(C(=O)O)c(=O)c2c(N)c(F)c(NC3CCCCC3)cc21 | PKN3 | kinase activity |  | 0.1 µM, together with: ATP at Km |  | inhibition | 0.6% |
| CCCCCCN(O)C(=O)CCCCC[C@@H]1NC(=O)[C@H]([C@@H](C)CC)NC(=O)[C@H](Cc2ccccc2C(F)(F)F)NC(=O)CCSCc2cccc(n2)CSCCCNC1=O | HDAC1 |  |  | 30 µM |  | inhibition | 50% |
| CCCCCCCCCCCCCC(=S)NCCCC[C@H](NC(=O)OCc1ccccc1)C(=O)Nc1ccccc1 | SIRT6 | enzyme activity, inhibitor |  | 10 µM, together with: myristoylated substrate |  | inhibition | < 5% |
| NC(=O)[C@@H](O)C[C@H]1CCc2sc3ncnc(O[C@H]4CC[C@H](N5CCOCC5)CC4)c3c21 | PKN3 | enzyme activity, inhibitor |  | 10 µM |  | inhibition | 35% |
| COc1cc(-c2cn(C)c(=O)c3cnccc23)cc(OC)c1CN(C)C | SMARCA2 (Homo sapiens, UniProt P51531) |  |  | 1 µM |  | inhibition | -9.02% |
| CC(=O)NCCNCc1cc(Cl)c(OCc2cccc(-c3cccc(OCc4ccc(C(=O)NO)cc4)c3)c2C)cc1OCc1cccc(C#N)c1 | HDAC1 | enzyme activity, inhibitor |  | 1 µM |  | inhibition | 15.8% |
| CC(C)Cn1c(SCC(=O)N2CCc3ccccc3C2)nc2cc(Cl)ccc2c1=O | OPRD1 (Homo sapiens, UniProt P41143) | ligand displacement, radioligand |  | 10 µM |  | inhibition | -8% |
| C=CC[C@@H]1NC(=O)CCSCc2ccc(cc2)CSC/C=C/CNC(=O)[C@H](CCCCCC(=O)N(O)CCCCCC)NC1=O | HDAC1 | enzyme activity, inhibitor, fluorogenic |  | 30 µM |  | inhibition | 30% |
| O=C(NO)c1cncc(OS(=O)(=O)Oc2ccccc2-c2ccccc2)c1 | HDAC1 | enzyme activity, inhibitor, fluorescence |  | 10 µM |  | inhibition | 35% |
| O=C(Nc1ccc(C(F)F)cc1)[C@H](CC1CCCCC1)Nc1nn2c(=O)ccnc2s1 | PTPRC (Homo sapiens, UniProt P08575) | enzyme activity, inhibitor |  | 10 µM |  | inhibition | 6% |
| C/C=C/C(=O)Nc1ccc2nc(NCCCCCN(C)C)nc(NCCCCCCN(C)C)c2c1 | SUV39H1 (Homo sapiens, UniProt O43463) | enzyme activity, inhibitor, radiometric |  | 50 µM |  | inhibition | 65% |
| CN(Cc1ccc(/C=C/C(=O)NO)cc1)CC12CC3CC(CC(C3)C1)C2 | human 5-HT5a receptor | agonist radioligand binding |  | 0.05 µM |  | inhibition | -1% |

Some of these lines once more:
| SMILES | target or system | test | test system | conditions | how to read | quantity | result |
| --- | --- | --- | --- | --- | --- | --- | --- |
| CC(=O)NCCNCc1cc(Cl)c(OCc2cccc(-c3cccc(OCc4ccc(C(=O)NO)cc4)c3)c2C)cc1OCc1cccc(C#N)c1 | HDAC1 | enzyme activity, inhibitor |  | 1 µM |  | inhibition | 15.8% |
| CC(C)Cn1c(SCC(=O)N2CCc3ccccc3C2)nc2cc(Cl)ccc2c1=O | OPRD1 (Homo sapiens, UniProt P41143) | ligand displacement, radioligand |  | 10 µM |  | inhibition | -8% |
| C=CC[C@@H]1NC(=O)CCSCc2ccc(cc2)CSC/C=C/CNC(=O)[C@H](CCCCCC(=O)N(O)CCCCCC)NC1=O | HDAC1 | enzyme activity, inhibitor, fluorogenic |  | 30 µM |  | inhibition | 30% |
| O=C(NO)c1cncc(OS(=O)(=O)Oc2ccccc2-c2ccccc2)c1 | HDAC1 | enzyme activity, inhibitor, fluorescence |  | 10 µM |  | inhibition | 35% |
